{"data": "Published values pooled from the literature", "note": "Lines come from different studies, so protocols differ. ± gives the spread as reported."}
{"Compound": "CCCCCCCCCCCCCCC[C@@H](O)[C@H](CO)NC(=O)N[C@@H](CC(C)C)C(=O)N[C@@H](CCC(=O)O)C(=O)N[C@@H](CCC(N)=O)C(=O)N[C@@H](CC(C)C)C(=O)N[C@@H](CO)C(=O)N[C@H](C(=O)N[C@@H](Cc1c[nH]c2ccccc12)C(=O)NCC(=O)N[C@@H](CO)C(=O)N[C@@H](CCCCN)C(=O)N[C@@H](CCC(N)=O)C(=O)N[C@@H](CC(N)=O)C(=O)N[C@@H](CCC(N)=O)C(=O)N[C@@H](C)C(=O)N[C@@H](CCCNC(=N)N)C(=O)N[C@@H](CCCNC(=N)N)C(=O)N[C@@H](CC(C)C)C(N)=O)C(C)C", "organism": "HIV-1 HXB2", "assay": "viral infection, luciferase reporter", "system": "TZM-bl", "IC50": "> 4000 nM"}
{"Compound": "CC[C@H](C)[C@H](NC(=O)[C@H](Cc1c[nH]c2ccccc12)NC(=O)c1ccccc1)C(=O)N[C@@H](CCCNC(=N)N)C(=O)N[C@@H](Cc1ccc(O)cc1)C(=O)N[C@@H](CCCCN)C(=O)N[C@@H](Cc1c[nH]c2ccccc12)C(=O)N1CCC[C@@H]1C(=O)N[C@@H](CCCNC(=N)N)C(=O)N[C@@H](CCCCN)C(=O)N[C@@H](CCCCN)C(=O)N[C@H](C(=O)N[C@@H](CCCNC(=N)N)C(=O)N[C@@H](Cc1ccc(O)cc1)C(=O)N[C@@H](Cc1c[nH]c2ccccc12)C(=O)N[C@H](C(=O)NCC(=O)N1CCC[C@H]1C(N)=O)[C@@H](C)O)C(C)C", "organism": "Corynebacterium glutamicum", "assay": "growth", "system": "ATCC 13032", "IC50": "100 nM"}
{"Compound": "Cc1cc(N2CCC(C#N)(C3(C)CC3)C2=O)cc(C(=O)NCc2cc(F)cc(-c3cnn(C)c3)c2)n1 (racemic)", "organism": "Plasmodium falciparum", "assay": "parasite growth", "system": "Dd2-B2 parent line", "IC50": "21 nM"}
{"Compound": "CCCCC(CC)COC(=O)CC(C(=O)OCC(CC)CCCC)S(=O)(=O)O.CCCSc1ccc2[nH]c(NC(=O)OC)nc2c1 (centres unmarked)", "organism": "Cryptococcus neoformans var. grubii", "assay": "EUCAST broth microdilution", "system": "KN99α reference strain", "conditions": "72 h, 37 °C, RPMI with 2% glucose", "IC50": "625 nM"}
{"Compound": "CCCCCCCCCCCCCCC[C@@H](O)[C@H](CO)NC(=O)N[C@@H](CC(C)C)C(=O)N[C@@H](CC(C)C)C(=O)N[C@@H](CCC(N)=O)C(=O)N[C@@H](CC(C)C)C(=O)N[C@H](C(=O)N[C@H](C(=O)N[C@@H](Cc1c[nH]c2ccccc12)C(=O)NCC(=O)N[C@H](C(=O)N[C@@H](CCCCN)C(=O)N[C@@H](CCC(N)=O)C(=O)N[C@@H](CC(C)C)C(=O)N[C@@H](CCC(N)=O)C(=O)N[C@@H](C)C(=O)N[C@@H](CCCNC(=N)N)C(=O)N[C@H](C(=O)N[C@@H](CC(C)C)C(=O)N[C@@H](CCCCN)C(N)=O)[C@@H](C)CC)[C@@H](C)CC)C(C)C)[C@@H](C)O", "organism": "HIV-1 HXB2", "assay": "viral infection, luciferase reporter", "system": "TZM-bl", "IC50": "118 ± 18 nM"}
{"Compound": "C[C@@H](O)[C@H](NC(=O)[C@H](Cc1c[nH]c2ccccc12)NC(=O)[C@H](CCCNC(=N)N)NC(=O)[C@H](Cc1c[nH]c2ccccc12)NC(=O)[C@H](CCCNC(=N)N)NC(=O)CNC(=O)[C@@H](NC(=O)[C@H](CCCNC(=N)N)NC(=O)[C@H](CCCNC(=N)N)NC(=O)[C@H](CC(N)=O)NC(=O)[C@H](Cc1c[nH]c2ccccc12)NC(=O)[C@H](CCCNC(=N)N)NC(=O)[C@H](Cc1c[nH]c2ccccc12)NC(=O)c1ccccc1)[C@@H](C)O)C(=O)NCC(=O)N1CCC[C@H]1C(N)=O", "organism": "Corynebacterium glutamicum", "assay": "growth", "system": "ATCC 13032", "IC50": "20 nM"}
{"Compound": "CCCCCCCCCCCCCCC[C@@H](O)[C@H](CO)NC(=O)NCCCC[C@H](NC(=O)[C@H](CC(C)C)NC(=O)[C@@H](NC(=O)[C@H](CCCNC(=N)N)NC(=O)[C@H](C)NC(=O)[C@H](CCC(N)=O)NC(=O)[C@H](CC(C)C)NC(=O)[C@H](CCC(N)=O)NC(=O)[C@H](CCCCN)NC(=O)[C@@H](NC(=O)CNC(=O)[C@H](Cc1c[nH]c2ccccc12)NC(=O)[C@@H](NC(=O)[C@@H](NC(=O)[C@H](CC(C)C)NC(=O)[C@H](CCC(N)=O)NC(=O)[C@H](CC(C)C)NC(=O)[C@@H](N)CC(C)C)[C@@H](C)O)C(C)C)[C@@H](C)CC)[C@@H](C)CC)C(N)=O", "organism": "HIV-1 HXB2", "assay": "viral infection, luciferase reporter", "system": "TZM-bl", "IC50": "291 ± 102 nM"}
{"Compound": "CC[C@H](C)[C@H](NC(=O)[C@H](CC(C)C)NC(=O)[C@H](CC(C)C)NC(=O)[C@H](CC(=O)O)NC(=O)[C@@H](NC(=O)[C@H](CCC(=O)O)NC(=O)[C@H](CCCCN)NC(=O)[C@H](Cc1ccc(O)cc1)NC(=O)[C@H](CCCCN)NC(=O)[C@H](Cc1c[nH]cn1)NC(=O)CNC(=O)CN)[C@@H](C)O)C(=O)N[C@@H](CC(C)C)C(=O)N[C@@H](Cc1ccccc1)C(=O)N[C@@H](CCCCN)C(=O)N[C@@H](CC(=O)O)C(=O)N[C@@H](CC(=O)O)C(=O)N[C@@H](Cc1ccc(O)cc1)C(=O)N[C@@H](Cc1ccccc1)C(=O)N[C@@H](C)C(=O)N[C@@H](CCCCN)C(=O)N[C@@H](CCCCN)C(=O)N[C@@H](CC(N)=O)C(=O)N[C@@H](CCC(=O)O)C(=O)N[C@@H](CCC(=O)O)C(=O)N[C@@H](CCCNC(=N)N)C(=O)N[C@@H](CCCCN)C(N)=O", "organism": "hepatitis C virus", "assay": "viral replication, luciferase reporter", "system": "Huh-7 ET replicon", "conditions": "72 h", "IC50": "750 nM"}
{"Compound": "C[C@@H]1NC(=O)[C@@H](CCCN)NC(=O)[C@H](Cc2ccccc2)NC(=O)[C@@H](Cc2ccccc2)NC(=O)[C@H](Cc2ccccc2)NC(=O)[C@@H](CCCN)NC1=O", "organism": "Balamuthia mandrillaris", "assay": "parasite growth, ATP luminescence", "IC50": "14800 nM"}
{"Compound": "CC(=O)O[C@H]1C[C@H](O[C@H]2[C@@H](O)C[C@H](O[C@H]3[C@@H](O)C[C@H](O[C@H]4CC[C@@]5(C)[C@H](CC[C@@H]6[C@@H]5C[C@@H](O)[C@]5(C)[C@@H](C7=CC(=O)OC7)CC[C@]65O)C4)O[C@@H]3C)O[C@@H]2C)O[C@H](C)[C@H]1O[C@@H]1O[C@H](CO)[C@@H](O)[C@H](O)[C@H]1O", "organism": "human alphaherpesvirus 1", "system": "K26 GFP, 3D adult human skin air-liquid interface", "conditions": "48 h", "IC50": "140 nM"}
{"Compound": "Oc1c(Br)cc(Br)c2nc3ccc(C(F)(F)F)cc3nc12", "organism": "Acinetobacter baumannii", "assay": "microbial growth", "system": "19606", "IC50": "> 100000 nM"}
{"note": "Some of these lines once more:"}
{"Compound": "CC[C@H](C)[C@H](NC(=O)[C@H](CC(C)C)NC(=O)[C@H](CC(C)C)NC(=O)[C@H](CC(=O)O)NC(=O)[C@@H](NC(=O)[C@H](CCC(=O)O)NC(=O)[C@H](CCCCN)NC(=O)[C@H](Cc1ccc(O)cc1)NC(=O)[C@H](CCCCN)NC(=O)[C@H](Cc1c[nH]cn1)NC(=O)CNC(=O)CN)[C@@H](C)O)C(=O)N[C@@H](CC(C)C)C(=O)N[C@@H](Cc1ccccc1)C(=O)N[C@@H](CCCCN)C(=O)N[C@@H](CC(=O)O)C(=O)N[C@@H](CC(=O)O)C(=O)N[C@@H](Cc1ccc(O)cc1)C(=O)N[C@@H](Cc1ccccc1)C(=O)N[C@@H](C)C(=O)N[C@@H](CCCCN)C(=O)N[C@@H](CCCCN)C(=O)N[C@@H](CC(N)=O)C(=O)N[C@@H](CCC(=O)O)C(=O)N[C@@H](CCC(=O)O)C(=O)N[C@@H](CCCNC(=N)N)C(=O)N[C@@H](CCCCN)C(N)=O", "organism": "hepatitis C virus", "assay": "viral replication, luciferase reporter", "system": "Huh-7 ET replicon", "conditions": "72 h", "IC50": "750 nM"}
